Measurements gathered from unrelated publications.
Compare with care: the assays were run in different laboratories.
Organism: Staphylococcus aureus

SMILES	assay	system	setting	MIC
CNC(CC(C)C)C(=O)NC1C(=O)NC(CC(N)=O)C(=O)NC2C(=O)NC3C(=O)NC(C(=O)NC(C(=O)O)c4cc(O)cc(O)c4-c4cc3ccc4O)C(O)c3ccc(c(Cl)c3)Oc3cc2cc(c3OC2OC(CO)C(O)C(O)C2OC2CC(C)(NC(=O)CCCCCCCC[N+](C)(C)Cc3ccccc3)C(O)C(C)O2)Oc2ccc(cc2Cl)C1O (stereo not drawn)	agar dilution	MRSA clinical isolate MRSA4		128 µg/mL
FC(F)(F)c1cc(CSc2nnc(C34CC5CC(CC(C5)C3)C4)n2-c2ccccc2)cc(C(F)(F)F)c1	two-fold dilution	IFO 3060	24 h, 36 °C	0.5 µg/mL
CC(C)C[C@H](NC(=O)[C@H](CC(N)=O)NC(=O)[C@H](CCCNC(=N)N)NC(=O)[C@@H](CC(C)C)NC(=O)[C@H](Cc1ccc2ccccc2c1)NC(=O)[C@H](CC(=O)O)NC(=O)[C@H](CCCCN)NC(=O)[C@@H](CC(C)C)NC(=O)[C@H](CCCNC(=N)N)NC(=O)[C@H](CCC(N)=O)NC(=O)[C@@H](NC(=O)[C@@H](CC(C)C)NC(=O)[C@H](CCCNC(=N)N)NC(=O)[C@H](CCCCN)NC(=O)[C@H](Cc1ccccc1)NC(=O)CN)C(C)C)C(=O)N[C@H](C(N)=O)C(C)C	broth microdilution	USA300 LAC, MRSA		25 µM
CCc1[nH]c(C(=O)N[C@@H]2CCN(c3nnc(C(C)(C)O)s3)C[C@@H]2OC)nc1Cl		ATCC 43300		0.5 µg/mL
C=CCNCc1cc(N(C)C)c2c(c1O)C(=O)C1=C(O)[C@]3(O)C(=O)C(C(N)=O)=C(O)[C@@H](N(C)C)[C@@H]3C[C@@H]1C2		MRSA 5, Tet M ribosome protection		1 µg/mL
CC(C)CCCCCCCCC/C=C/C(=O)N[C@@H](CC(=O)O)C(=O)N[C@H]1CNC(=O)[C@@H]2CCCN2C(=O)[C@H](C(C)C)NC(=O)[C@@H]([C@@H](C)O)NC(=O)CNC(=O)[C@H](CC(=O)O)NC(=O)CNC(=O)[C@H](CC(=O)O)NC(=O)CNC(=O)[C@H]2CCCCN2C1=O		MRSA USA300	with: Ca2+ 1 mM	8 µg/mL
CN(C)c1cc(CNC2CCCC2)c(O)c2c1C[C@H]1C[C@H]3[C@H](N(C)C)C(O)=C(C(N)=O)C(=O)[C@@]3(O)C(O)=C1C2=O		MRSA 5, Tet M ribosome protection		0.5 µg/mL
CC1OCC2OC(OC3C(N)CC(N)C(O)C3OC3OC(CO)C(OC4OC(CN)C(O)C(O)C4N)C3O)C(N)C(O)C2O1 (stereo not drawn)	broth microdilution	MRSA isolate AG 038		32 to 64 µg/mL
Oc1c(Br)cc(Br)c2nc3cc(C(F)(F)F)ccc3nc12	broth microdilution	MRSA 1707	16 h, 37 °C	0.05 µM
CCCCCCCCCc1nc2ccccc2c(=O)n1CCN	broth microdilution	RN6390B		50 µM
COc1ccc(-c2csc(N/N=C(\C)c3ccc4c(c3)sc3nc(=O)c(C#N)cn34)n2)cc1	microbial growth, broth dilution			< 40 µg/mL
CCc1nc(N)nc(N)c1C#CC(C)c1cc(-c2cc(C)nc(C)c2)ccc1Cl (stereo not drawn)	microbial growth, broth dilution	ATCC43300	18 h	0.312 µg/mL
CN(C)c1cc(CNC(=O)C(C)(C)C)c(O)c2c1C[C@H]1C[C@H]3[C@H](N(C)C)C(O)=C(C(N)=O)C(=O)[C@@]3(O)C(O)=C1C2=O	microbial growth, broth dilution			2 µg/mL
CC(CCCOC(=O)CCC[N+](C)(C)C)C1CCC2C3CCC4CC(OC(=O)CCC[N+](C)(C)C)CCC4(C)C3CCC12C (stereo not drawn)	microbial growth, broth dilution	ATCC29213	16 h	< 0.5 µg/mL
CC(C)=CCc1cc2c(cc1O)OC[C@H]1c3ccc(O)c(CC=C(C)C)c3O[C@@H]21		ATCC 25923		2 µg/mL

A few entries again:
SMILES	assay	system	setting	MIC
CC(CCCOC(=O)CCC[N+](C)(C)C)C1CCC2C3CCC4CC(OC(=O)CCC[N+](C)(C)C)CCC4(C)C3CCC12C (stereo not drawn)	microbial growth, broth dilution	ATCC29213	16 h	< 0.5 µg/mL
